{"data": "Results from different studies", "note": "Every numbered part comes from another study and shows a few of its results, in no order. Positions count from the first letter of the parent shown."}
{"data": "Block 1", "target": "CCNA1, cyclin fold, Cln2 fusion (human)", "technique": "yeast growth competition, sequencing", "matrix": "yeast", "notes": "weak parent motif", "baseline": "not given", "direction": "higher = stronger binding", "starting sequence": "PKN2 docking peptide (human); VSAVRKLDFSDTM"}
{"Variant": "R5H", "normalised enrichment score": -0.0592}
{"Variant": "A3H", "normalised enrichment score": 0.922}
{"Variant": "L7E", "normalised enrichment score": 0.412}
{"Variant": "V4G", "normalised enrichment score": 0.0511}
{"Variant": "S2A", "normalised enrichment score": 0.617}
{"Variant": "R5A", "normalised enrichment score": 0.158}
{"Variant": "T12L", "normalised enrichment score": 0.574}
{"Variant": "D11G", "normalised enrichment score": 0.646}
{"Variant": "K6L", "normalised enrichment score": 0.0505}
{"Variant": "T12V", "normalised enrichment score": 0.223}
{"Variant": "S10H", "normalised enrichment score": 0.511}
{"Variant": "A3L", "normalised enrichment score": 0.351}
{"Variant": "D8R", "normalised enrichment score": 0.169}
{"Variant": "S10Q", "normalised enrichment score": 0.924}
{"Variant": "F9S", "normalised enrichment score": 0.439}
{"Variant": "V4W", "normalised enrichment score": 0.391}
{"Variant": "R5M", "normalised enrichment score": -0.0829}
{"Variant": "F9T", "normalised enrichment score": 0.14}
{"Variant": "S2F", "normalised enrichment score": 0.13}
{"data": "Block 2", "target": "Prothrombin, mature alpha-thrombin (F2, Homo sapiens, UniProt P00734)", "technique": "aptamer microarray, sandwich", "molecule type": "DNA with 2'F-ANA", "matrix": "in vitro", "concentration": "200 nM", "notes": "whole 15-mer aptamer, many near background", "added": "Cy3 exosite-II aptamer, 400 nM", "direction": "higher = stronger binding", "sequence": "GGTTGGTGTGGTTGG"}
{"Modification": "2'F-ANA at 1 2 3 4 9 11 12 13 15", "mean fluorescence intensity [a.u.]": 199}
{"Modification": "2'F-ANA at 1 2 3 5 6 8 10 11 13", "mean fluorescence intensity [a.u.]": 56}
{"Modification": "2'F-ANA at 1 6 12 13 14", "mean fluorescence intensity [a.u.]": 64}
{"Modification": "2'F-ANA at 1 3 5 6 7 8 9", "mean fluorescence intensity [a.u.]": 73.6}
{"Modification": "2'F-ANA at 1 2 4 6 7 9 11 14", "mean fluorescence intensity [a.u.]": 48.9}
{"Modification": "2'F-ANA at 6 9 13 15", "mean fluorescence intensity [a.u.]": 310}
{"Modification": "2'F-ANA at 1 3 4 5 6 7 10 15", "mean fluorescence intensity [a.u.]": 56.9}
{"Modification": "2'F-ANA at 1 6 7 9 10 13", "mean fluorescence intensity [a.u.]": 62.1}
{"Modification": "2'F-ANA at 1 12 15", "mean fluorescence intensity [a.u.]": 379}
{"Modification": "2'F-ANA at 1 2 4 5 7 8 10 14", "mean fluorescence intensity [a.u.]": 53.1}
{"Modification": "2'F-ANA at 3 4 5 7", "mean fluorescence intensity [a.u.]": 107}
{"Modification": "2'F-ANA at 1 2 3 4 5 10 13", "mean fluorescence intensity [a.u.]": 46.4}
{"Modification": "2'F-ANA at 1 3 7 9 11 14 15", "mean fluorescence intensity [a.u.]": 82.5}
{"Modification": "2'F-ANA at 1 3 5 9", "mean fluorescence intensity [a.u.]": 63.1}
{"Modification": "2'F-ANA at 1 4 6 7 9 11 14", "mean fluorescence intensity [a.u.]": 48.6}
{"Modification": "2'F-ANA at 2 3 4 5 8 13 14", "mean fluorescence intensity [a.u.]": 63.8}
{"Modification": "2'F-ANA at 2 3 4 5 8 9 10 11 12 13", "mean fluorescence intensity [a.u.]": 53.7}
{"Modification": "2'F-ANA at 2 5 7 8 10 11 12 13 14", "mean fluorescence intensity [a.u.]": 45.6}
{"Modification": "2'F-ANA at 1 4 7 8 10", "mean fluorescence intensity [a.u.]": 50.3}
{"Modification": "2'F-ANA at 2 3 5 9 11 13 15", "mean fluorescence intensity [a.u.]": 67.9}
{"data": "Block 3", "target": "RING finger protein unkempt homolog, zinc fingers 1-6, GST-SBP tag (UNK, Homo sapiens, UniProt Q9C0B0, residues 30-357)", "technique": "RNA Bind-n-Seq", "molecule type": "RNA", "matrix": "in vitro", "concentration": "not given", "notes": "RNA with constant flanks, human and mouse sites, ends assumed", "baseline": "input RNA pool", "direction": "higher = stronger binding", "all sequences stand within": "GGGAGUUCUACAGUCCGACGAUC … CAACAGAGGAUUGAGCAUCA", "Residues (chain)": "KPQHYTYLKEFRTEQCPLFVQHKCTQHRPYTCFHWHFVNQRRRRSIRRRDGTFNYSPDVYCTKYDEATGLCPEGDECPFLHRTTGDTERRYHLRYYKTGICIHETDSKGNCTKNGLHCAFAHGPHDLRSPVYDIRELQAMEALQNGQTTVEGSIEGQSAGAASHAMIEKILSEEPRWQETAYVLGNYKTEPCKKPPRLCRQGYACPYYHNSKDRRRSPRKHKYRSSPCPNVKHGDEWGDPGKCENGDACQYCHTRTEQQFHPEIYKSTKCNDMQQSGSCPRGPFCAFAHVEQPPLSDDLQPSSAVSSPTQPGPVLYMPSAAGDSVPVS"}
{"Sequence": "CCGCAGGGGUCUGGCUUAUGUGUGCCACCAGCGAGGAGAGGAGCUCAAAGGCCAUAAUACUCUGCCUUCACCCUGGAGAGACCGUCCCAUGGAGGAGUCACUGCUGCUCUUUGAGGCAAU", "bound/input enrichment [ratio]": 0.107}
{"Sequence": "GGCCAGGCUUUUGAGCUGAUCUUGAAGCCACCAUCUCCCAUCUCAGAAGCUCCACGAACUCUAGCUUCUCCAAAGAAGAAAGACCUGUCUCUGGAGGAGAUUCAGAAAAAGCUGGAGGCU", "bound/input enrichment [ratio]": 0.0632}
{"Sequence": "AGUUUAUUAUUGUUGCUUAAUAAGAAAACACGGUUCCACUUGGGCUAUUUUAAGGGCAGGUAGCUAUCACUCUGUCUUGUGUUAUGAUUAAUAUUAUCUGCAUAAGCAUAGAAUAAUACU", "bound/input enrichment [ratio]": 0.533}
{"Sequence": "AAAAUUAAGCCUCAGCAUUCUGUAUCGAAAAGAAUUAUUAUCUUUUCCUCCUGUCUUUUGUAAUAACUUCAGAUUUUAUUAAUUCAAAUGGCUUGGUCUUCCUGUUUUGUAAUCAUGACU", "bound/input enrichment [ratio]": 1.19}
{"Sequence": "CCAGGCAGAGGAGAUAUGGAACAGAAUGACUCUGACAACCGUAGAAUAAUUCGCUAUCCAGAUAGUCAUCAACUUUUUGUUGGUAACUUGCCACAUGAUAUUGAUGAAAAUGAGCUAAAG", "bound/input enrichment [ratio]": 0.884}
{"Sequence": "AGCAGAAGCAGGAACGUCAGAAGUUGAAGGGCAUCCUCAGCUGUCCGCGAGUUCUGUAGGACAUUCCAAUUUGGAUUUUUAUUAUUGCUGGAAAAAAGUUUGCUUUACCCCAGACUUGAA", "bound/input enrichment [ratio]": 0.259}
{"Sequence": "CGUUCUCUGCCACCUCCUUCCCCUGCCCACUUGGCUGCUUUAAGUGUUGCAGUCAUUGAAUUAGCAAAAGAACAUGGAAUAACAGAUGAUGACCUCAGAGUCCGUCAGGAAAUUGUGGAG", "bound/input enrichment [ratio]": 1.16}
{"Sequence": "AUUUCCCCAAAAGUUACGAGUUUAUUGGUGGUCCCUGGGAGCUCAGAUGUAAAAGACAAAGUUAGCUCGGAUCUCCCACAGAUAGGGCCACCCUUGACCUCUACACCCCAACUACAGGCU", "bound/input enrichment [ratio]": 0.148}
{"data": "Block 4", "target": "Sal-like protein 4, full length isoform B (SALL4, Homo sapiens, UniProt Q9UJQ4-2, residues 1-616)", "technique": "universal PBM", "molecule type": "double-stranded DNA, one strand shown", "matrix": "in vitro", "concentration": "not given", "notes": "8-mer, flanks averaged, mean of replicates", "direction": "higher = stronger binding"}
{"Sequence": "ATCTGACG", "E-score": -0.0942}
{"Sequence": "AGGCTGCG", "E-score": -0.22}
{"Sequence": "AGCCTATC", "E-score": 0.0483}
{"Sequence": "CTCGAGAA", "E-score": -0.124}
{"Sequence": "AGCAGGCT", "E-score": -0.201}
{"Sequence": "CCACGAAA", "E-score": -0.132}
{"Sequence": "ACGCATAA", "E-score": 0.252}
{"Sequence": "AAGGGGAG", "E-score": -0.211}
{"Sequence": "GGCTTTAC", "E-score": -0.0533}
{"Sequence": "ATAGAATA", "E-score": 0.323}
{"Sequence": "AATGACCT", "E-score": 0.102}
{"Sequence": "GCGCTTGA", "E-score": -0.0572}
{"Sequence": "ACACGGCT", "E-score": -0.0556}
{"Sequence": "GACCACAC", "E-score": -0.152}
{"Sequence": "ATCACCAT", "E-score": 0.145}
{"Sequence": "ATAGATGG", "E-score": 0.0519}
{"data": "Block 5", "target": "RNA binding protein fox-1 homolog 2, RRM domain, GST-SBP tag (RBFOX2, Homo sapiens, UniProt O43251-10, residues 100-194)", "technique": "RNA Bind-n-Seq", "molecule type": "RNA", "matrix": "in vitro", "concentration": "365 nM", "notes": "natural RNA segment, single round, ends assumed", "baseline": "no-protein control", "direction": "higher = stronger binding", "all sequences stand within": "GGGAGUUCUACAGUCCGACGAUC … UGGAAUUCUCGGGUGCCAA", "Residues (chain)": "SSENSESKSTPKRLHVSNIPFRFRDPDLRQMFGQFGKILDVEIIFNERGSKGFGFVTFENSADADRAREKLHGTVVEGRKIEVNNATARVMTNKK"}
{"Sequence": "CUUGAGGUACUCCCUGAGCAGGACCCCACACUUGGGUGGGGGGGCUUAUCUGGGUGGGUGGGGAUGCCUGUUUACACUAGCGCUGACUCCCAACGGUGACGGCUCCCUUC", "RBNS enrichment (R)": 0.493}
{"Sequence": "CUCUGUCCCAGGUUUUUAGAUCCCACUGAGCCCAGCUGACUGAAAACAAGGACAGUCAGGGUGAAACUUCUUUUGCCAGAAGUGUGGCCUGAGUUGAAUUUCUGGGAGGA", "RBNS enrichment (R)": 0.311}
{"Sequence": "AUGCACUUGACGAGUGCUGAAAACUUCUUAAGUGGUUUAAAUUUUGUUUUCAUUGUUUGCAGCGGAUUACUGGACAUCAAAGAUUCAUUGCACUUAUGAACAAGGAACCU", "RBNS enrichment (R)": 0.537}
{"Sequence": "AUCACCCUAGGUGUGCACCAGACUCCUAUUAGCCCCUCCUUCCAGGAGCUAGAACCAGGGAGGUCCUGAGUGAGGAAGGCAUGACCUCUGGGCUCUCUAGGUGGCCCUGG", "RBNS enrichment (R)": 1.42}
{"Sequence": "CUCGAUCUUCAUCCUCUUCAGCAUCACCUUCUUCUCCCAGUUCUCGAGAAGAAAAGGAGAGUAAGAAGGAAAGAGAAGAAGAAUUUAAAACUCACCAUGAAAUGAAAGAA", "RBNS enrichment (R)": 0.835}
{"Sequence": "CUGAGUAAAGUCCCCUUCCCUCCAGAGUGUCACAGAGACACUAGAAUGUCAGGUGCUCUUGUCUGAUGUAGAAGUCUUUGAUGAGGAAGCCUUCUUUCCCUUGGGGUCUC", "RBNS enrichment (R)": 0.91}
{"Sequence": "CUGCCCCUCGAGGGGGCCCUGCCUGCCGCGGGGCCUCCCCACAAGCCCCUCCCAAAGCGCCGGCCGACUCGCUGUCUCGCUGGGGACUCUUUCAGCCCUCGCGCCCGCCC", "RBNS enrichment (R)": 0.674}
{"Sequence": "ACAAGUUAAAAAUAUAAAUUAAACAUUGGCCUUCUAGUGUGGUGUUUAUGAGCAUCUGGAAGAGCAAAUUCUAACUCCUGUCCAAGUGACAGACUGGAAUAUUUCUUAGG", "RBNS enrichment (R)": 0.678}
